Results collected from several papers.
Protocols differ between the studies behind these lines. “And” joins repeats or separate records; there may be more than shown. ± gives the spread as reported.

Cc1ccc(SC2=CS(=O)(=O)c3ccccc32)cc1 gave an IC50 of > 125 µM (CoA-CPM signal reduction, CPM fluorescence thiol; cell-free biochemical; assay interference counter-screen, added: CoA replacing acetyl-CoA).
COc1cccc(/C=N/N=C/c2cccc(OC)c2)c1 gave an IC50 of > 3000 µM (ferric reducing antioxidant power, FRAP).
The IC50 of CC[C@H](C)[C@H](NC(C)=O)C(=O)N[C@H]1CSSC[C@@H](C(=O)N[C@H](C(N)=O)[C@@H](C)O)NC(=O)[C@H](CCCNC(=N)N)NC(=O)[C@H](Cc2c[nH]cn2)NC(=O)[C@H](Cc2cccc3ccccc23)NC(=O)CNC(=O)[C@H](Cc2c[nH]c3ccccc23)NC(=O)[C@H](CC(=O)O)NC(=O)[C@H](CCC(N)=O)NC(=O)[C@H](Cc2cn(C)c3ccccc23)NC(=O)[C@H](C(C)C)NC1=O is reported as 1.21 ± 0.31 µM (complement activation, inhibitor, ELISA, item: C3b; normal human serum).
With OC1CCC(Oc2cccc3cnc(Nc4ccc5nc[nH]c5c4)nc23)CC1 (stereo not shown) the IC50 was 0.876 µM (cell viability; patient-derived ovarian cancer organoids; 96 h).
For CCCC[C@@H]1OC(=O)c2ccccc21, the IC50 was 1290 ± 110 µM (platelet aggregation, inhibitor; platelets; added: ADP 10 µmol/L).
With CN1CC(Oc2cnc(C#N)cc2-c2ccn3nc(NC(=O)C4CC4)cc3c2)C1 the IC50 was 0.6 µM (TNF release; mouse whole blood; added: LPS).
The IC50 of Cc1c(CN2CCN(C(=O)[C@H](C)O)CC2)sc2c(N3CCOCC3)nc(-c3cnc(N)nc3)nc12 is reported as 0.0056 µg/mL (Akt phosphorylation; cancer patients, Angiosarcoma primary tumour, plasma).
CC[C@H](C)[C@H](NC(=O)[C@H](CO)NC(=O)[C@H](CCCNC(=N)N)NC(C)=O)C(=O)N[C@H]1CSSC[C@@H](C(=O)N[C@H](C(N)=O)[C@@H](C)O)NC(=O)[C@H](CCCNC(=N)N)NC(=O)[C@H](Cc2c[nH]cn2)NC(=O)[C@H](C)NC(=O)CNC(=O)[C@H](Cc2c[nH]c3ccccc23)NC(=O)[C@H](CC(=O)O)NC(=O)[C@H](CCC(N)=O)NC(=O)[C@H](Cc2ccc3ccccc3c2)NC(=O)[C@H](C(C)C)NC1=O has an IC50 of 1.08 ± 0.07 µM (complement activation, inhibitor, ELISA, item: C3b; normal human serum).
CCN(CC)c1ccc(/C=N/c2ccccc2Br)c(O)c1 gave an IC50 of 154 µM (nitric oxide scavenging, sodium nitroprusside).
For O=C1O[C@H]([C@@H](O)CO)C(O)=C1O, the IC50 was 1330 ± 49 µM (nitric oxide scavenging, Griess; 30 min, 25 °C, added: sodium nitroprusside 5 mM).
For Fc1ccc(Nc2nc(-c3ccccc3)no2)cc1, the IC50 was > 125 µM (CoA-CPM signal reduction, CPM fluorescence thiol; cell-free biochemical; assay interference counter-screen, added: CoA replacing acetyl-CoA).
For CCOC(=O)C1=C(CCl)NC(=O)NC1c1cccc(C)c1 (stereo not shown), the IC50 was 210 µM (nitric oxide scavenging).
O=C(Cc1ccc(Cl)cc1Cl)NNC(=S)N=Cc1ccc(O)c(O)c1 gave an IC50 of 30.7 ± 1.47 µM (iron chelation; cell-free; EDTA as standard).
The IC50 of Cc1cc(C(C)(C)C)c(O)c(C(C)(C)C)c1 is reported as 8.72 µg/mL (DMPD radical scavenging).
CC(=O)N[C@@H](CC(N)=O)C(=O)N[C@@H](CCCNC(=N)N)C(=O)N[C@@H](CC(C)C)C(=O)N[C@H]1CSSC[C@@H](C(=O)N[C@H](C(N)=O)[C@@H](C)O)NC(=O)[C@H](CCCNC(=N)N)NC(=O)[C@H](Cc2c[nH]cn2)NC(=O)[C@H](Cc2cccc3ccccc23)NC(=O)CNC(=O)[C@H](Cc2c[nH]c3ccccc23)NC(=O)[C@H](CC(=O)O)NC(=O)[C@H](CCC(N)=O)NC(=O)[C@H](Cc2cccc3ccccc23)NC(=O)[C@H](C(C)C)NC1=O gave an IC50 of 2.2 ± 0.11 µM (complement activation, inhibitor, ELISA, item: C3b; normal human serum).
O=S(=O)(Nc1ccc(O)c(Br)c1)c1ccc(F)cc1 gave an IC50 of > 125 µM (CoA-CPM signal reduction, CPM fluorescence thiol; cell-free biochemical; assay interference counter-screen, added: CoA replacing acetyl-CoA).
With O=c1cc(-c2ccc(O)c(O)c2)oc2cc(O)c([C@@H]3O[C@H](CO)[C@@H](O)[C@H](O)[C@H]3O)c(O)c12 the IC50 was 10.8 ± 0.45 µg/mL (ABTS radical scavenging).
C=CC[C@@]1(C)NC(=O)CNC(=O)[C@H](Cc2c[nH]c3ccccc23)NC(=O)[C@H](CC(=O)O)NC(=O)[C@H](CCC(N)=O)NC(=O)[C@H](Cc2c[nH]c3ccccc23)NC(=O)[C@H](C(C)C)NC(=O)[C@@H](NC(=O)[C@@H](NC(C)=O)[C@@H](C)CC)CSSC[C@@H](C(=O)N[C@H](C(N)=O)[C@@H](C)O)NC(=O)[C@H](CCCNC(=N)N)NC(=O)[C@H](Cc2c[nH]cn2)NC1=O has an IC50 of 0.84 ± 0.09 µM (complement activation, inhibitor, ELISA, item: C5b-9; normal human serum).
O=S1(=O)CC(c2ccccc2)c2ccccc21 (stereo not shown) gave an IC50 of > 125 µM (CoA-CPM signal reduction, CPM fluorescence thiol; cell-free biochemical; assay interference counter-screen, added: CoA replacing acetyl-CoA).
Cc1cccc(/C=N/N=C/c2cccc(C)c2)c1 gave an IC50 of 198 µM (nitric oxide scavenging; antioxidant).
With O=S1(=O)C=C(N2CCCCC2)c2ccccc21 the IC50 was > 125 µM (CoA-CPM signal reduction, CPM fluorescence thiol; cell-free biochemical; assay interference counter-screen, added: CoA replacing acetyl-CoA).
With O=C(Cc1ccc(Cl)cc1Cl)NNC(=S)N=Cc1ccccc1O the IC50 was 49.8 µM and 28.3 µM (hydroxyl radical scavenging).
CCOC(=O)C1=C(CCl)NC(=O)NC1c1ccc(F)cc1F (stereo not shown) has an IC50 of 162 µM (nitric oxide scavenging).
For Clc1ccc(/C=N/N=C/c2ccc(Cl)cc2)cc1, the IC50 was 2930 µM (ferric reducing antioxidant power, FRAP).
For O=S1(=O)C=C(SCCN2CCOCC2)c2ccccc21, the IC50 was > 125 µM (CoA-CPM signal reduction, CPM fluorescence thiol; cell-free biochemical; assay interference counter-screen, added: CoA replacing acetyl-CoA).
CCOC(=O)C1=C(CSC2=NCCS2)NC(=O)NC1c1ccc(F)cc1 (stereo not shown) gave an IC50 of 180 µM (nitric oxide scavenging).
With CC[C@H](C)[C@H](NC(C)=O)C(=O)N[C@H]1CSSC[C@@H](C(=O)N[C@H](C(N)=O)[C@@H](C)O)NC(=O)[C@H](CCCNC(=N)N)NC(=O)[C@H](Cc2c[nH]cn2)NC(=O)[C@@](C)(CC)NC(=O)CNC(=O)[C@H](Cc2c[nH]c3ccccc23)NC(=O)[C@H](CC(=O)O)NC(=O)[C@H](CCC(N)=O)NC(=O)[C@H](Cc2c[nH]c3ccccc23)NC(=O)[C@H](C(C)C)NC1=O the IC50 was 0.83 ± 0.08 µM (complement activation, inhibitor, ELISA, item: C5b-9; normal human serum).
The IC50 of C[C@@H]1O[C@@H](O[C@H]2[C@H](O[C@H]3CC[C@@]4(C)[C@@H](CC[C@]5(C)[C@@H]4CC=C4[C@@H]6CC(C)(C)CC[C@]6(C(=O)O)CC[C@]45C)[C@]3(C)CO)OC[C@H](O)[C@@H]2O)[C@H](O)[C@H](O)[C@H]1O is reported as 130 ± 7.9 µM (peroxynitrite scavenging, dihydrorhodamine fluorescence).
O=[N+]([O-])c1cccc(/C=N/N=C/c2cccc([N+](=O)[O-])c2)c1 gave an IC50 of 1450 µM (nitric oxide scavenging; antioxidant).
For CCN(CC)c1ccc(/C=N/c2ccc(F)c(Cl)c2)c(O)c1, the IC50 was 69.4 µM (nitric oxide scavenging, sodium nitroprusside).
C[C@@H]1O[C@@H](O[C@@H]2[C@@H](O)[C@H](OCCc3ccc(O)c(O)c3)O[C@H](CO)[C@H]2OC(=O)/C=C/c2ccc(O)c(O)c2)[C@H](O)[C@H](O)[C@H]1O has an IC50 of 7.86 ± 0.14 µg/mL (ABTS radical scavenging).
For O=C1CC(SC2=NCCS2)C(=O)N1c1ccc(Br)cc1 (stereo not shown), the IC50 was > 125 µM (CoA-CPM signal reduction, CPM fluorescence thiol; cell-free biochemical; assay interference counter-screen, added: CoA replacing acetyl-CoA).
With Clc1ccccc1/C=N/N=C/c1ccccc1Cl the IC50 was 1640 µM (nitric oxide scavenging; antioxidant).
For CCOC(=O)C1=C(CCl)NC(=O)NC1c1cccc(F)c1 (stereo not shown), the IC50 was 194 µM (nitric oxide scavenging).
The IC50 of O=C(O)CN(CCN(CC(=O)O)CC(=O)O)CC(=O)O is reported as 66.4 ± 1.07 µM (iron chelation; cell-free).
O=C(O)/C=C/c1ccc(O)c(O)c1 has an IC50 of 5.24 ± 0.9 µg/mL (ABTS radical scavenging).
With Clc1cccc(/C=N/N=C/c2cccc(Cl)c2)c1 the IC50 was 1780 µM (ferric reducing antioxidant power, FRAP).

A few entries again:
C[C@@H]1O[C@@H](O[C@@H]2[C@@H](O)[C@H](OCCc3ccc(O)c(O)c3)O[C@H](CO)[C@H]2OC(=O)/C=C/c2ccc(O)c(O)c2)[C@H](O)[C@H](O)[C@H]1O has an IC50 of 7.86 ± 0.14 µg/mL (ABTS radical scavenging).
For O=C1CC(SC2=NCCS2)C(=O)N1c1ccc(Br)cc1 (stereo not shown), the IC50 was > 125 µM (CoA-CPM signal reduction, CPM fluorescence thiol; cell-free biochemical; assay interference counter-screen, added: CoA replacing acetyl-CoA).
With Clc1ccccc1/C=N/N=C/c1ccccc1Cl the IC50 was 1640 µM (nitric oxide scavenging; antioxidant).
For CCOC(=O)C1=C(CCl)NC(=O)NC1c1cccc(F)c1 (stereo not shown), the IC50 was 194 µM (nitric oxide scavenging).
The IC50 of O=C(O)CN(CCN(CC(=O)O)CC(=O)O)CC(=O)O is reported as 66.4 ± 1.07 µM (iron chelation; cell-free).
O=C(O)/C=C/c1ccc(O)c(O)c1 has an IC50 of 5.24 ± 0.9 µg/mL (ABTS radical scavenging).
